Experimental data gathered from unrelated publications.
Each line is one published result; not all experiments were run side by side. ± gives the spread as reported.
Cell line: Caco-2

Compound	assay	system	conditions	how to read	quantity	value
CCCCCOP(=O)(O)Oc1c2c(c(OP(=O)(O)OCCCCC)c3c1C1CC3c3cc4c(cc31)C1CC4c3ccccc31)C1CC2c2cc3c(cc21)C1CC3c2ccccc21	CellTiter-Glo		2 days		CC50	185 µM
Nc1nc(Nc2ccc(Cl)cc2)nn1S(=O)(=O)c1ccc2ccccc2c1			10 µM, 90 (unit not given), pH 7.4		Papp B-A	0.122 ×10⁻⁶ cm/s
C=CC(=O)N1CCN(c2ccc(C(N)=O)cn2)CC1	resazurin		0.25 to 1 mM		viability	> 85%
CCCCCCCCCCCCCCCCOP(=O)(O)Oc1c2c(c(OP(=O)(O)OCCCCCCCCCCCCCCCC)c3c1C1CC3c3cc4c(cc31)C1CC4c3ccccc31)C1CC2c2cc3c(cc21)C1CC3c2ccccc21	CellTiter-Glo		2 days		CC50	244 µM
Clc1c(Cl)c(Cl)c2c(oc3c(Cl)c(Cl)c(Cl)c(Cl)c32)c1Cl	measured: basolateral amount	Transwell model	0.2 ng/mL, 24 h	baseline: total applied amount	transport fraction	0.2%
O=C(O)CCOP(=O)(O)Oc1c2c(c(OP(=O)(O)OCCC(=O)O)c3c1C1CC3c3cc4c(cc31)C1CC4c3ccccc31)C1CC2c2cc3c(cc21)C1CC3c2ccccc21	CellTiter-Glo		2 days		CC50	> 300 µM
CC(=O)N(CCCc1cn(-c2ccc(CN3CCOCC3)cc2)nn1)CCNc1ccnc2cc(Cl)ccc12					CC50	65.2 ± 10.7 µM
F[P-](F)(F)(F)(F)F.OCP(CO)CO.OCP(CO)CO.OCP(CO)CO.OCP(CO)CO.[Cu+]	cell viability, MTT		72 h	baseline: cisplatin	sensitivity ratio	~40 fold
CN(C)CC1CCCCC1(O)c1cccc(O)c1 (stereo not shown)			concentration not given, 3 h, basolateral-to-apical, apical pH 6.8, together with: cyclosporine A 10 µM		efflux increase	≤ 26%
CC(C)C[C@H](NC(=O)CNC(=O)[C@@H](N)Cc1c[nH]c2ccccc12)C(=O)N1CCC[C@H]1C(=O)O	MTT		0.5 and 1 mM, 4 h		viability	> 100%
C#CCC(C)OP(=O)(O)Oc1c2c(c(OP(=O)(O)OC(C)CC#C)c3c1C1CC3c3cc4c(cc31)C1CC4c3ccccc31)C1CC2c2cc3c(cc21)C1CC3c2ccccc21 (stereo not shown)	CellTiter-Glo		2 days		CC50	> 300 µM
O=CN(CCCc1cn(-c2ccc(CN3CCOCC3)cc2)nn1)CCNc1ccnc2cc(Cl)ccc12					CC50	92.2 ± 4.7 µM
CCCCn1cc(C(=O)O)c(=O)c2cc(F)c(Nc3cccc(Cl)c3)c(N)c21	cell growth, SRB		72 h		IC50	25.7 ± 2.64 µg/mL
CCCCCCOP(=O)(O)Oc1c2c(c(OP(=O)(O)OCCCCCC)c3c1C1CC3c3cc4c(cc31)C1CC4c3ccccc31)C1CC2c2cc3c(cc21)C1CC3c2ccccc21	CellTiter-Glo		2 days		CC50	208 µM
C=CC(=O)N1CCC(c2nc(-c3ccccn3)no2)CC1	resazurin		0.25 to 1 mM		viability	> 85%
Clc1cc2oc3cc(Cl)c(Cl)c(Cl)c3c2cc1Cl	measured: basolateral amount	Transwell model	0.2 ng/mL, 24 h	baseline: total applied amount	transport fraction	4.4%
CCCCn1cc(C(=O)O)c(=O)c2cc(F)c(Nc3ccccc3Cl)c(N)c21	cell growth, SRB		72 h		IC50	107 ± 5.74 µg/mL
CCCCC[C@@H]1OC(=O)[C@@H](C)N(C)C(=O)[C@H](CCCCC)OC(=O)[C@@H](C)N(C)C(=O)[C@H](CCCCC)OC(=O)[C@@H](C)N(C)C(=O)[C@H](CCCCC)OC(=O)[C@@H](C)N(C)C1=O		HBSS, <1% DMSO	10 µM, 2 h, pH 7.4, apical to basolateral		recovery	29%
CC[C@H](C)[C@@H]1NC(=O)[C@H](CCCCN)NC(=O)[C@H]([C@@H](C)O)NC(=O)[C@H](Cc2ccccc2)NC(=O)[C@H]([C@@H](C)CC)NC(=O)[C@@H]2CCCN2C(=O)[C@@H](N)CSSC[C@@H](C(=O)NCC(=O)NCC(=O)N[C@@H](CCCNC(=N)N)C(=O)N[C@@H](CCCNC(=N)N)C(=O)N[C@@H](CCCCN)C(=O)N[C@@H](CCCCN)C(=O)O)NC(=O)[C@H]([C@@H](C)O)NC(=O)CNC(=O)[C@H](CCC(N)=O)NC1=O	MTT		up to 25.0 µM, 48 and 72 h		viability reduction	~25%
C=CC(=O)NC1CC(CO)(CO)C1	resazurin		0.25 to 1 mM		viability	> 85%
CCCCn1cc(C(=O)O)c(=O)c2cc(F)c(Nc3cccc(Cl)c3)c([N+](=O)[O-])c21	cell growth or viability, SRB				IC50	269 µM
C=CCCCCOP(=O)(O)Oc1c2c(c(OP(=O)(O)OCCCCC=C)c3c1C1CC3c3cc4c(cc31)C1CC4c3ccccc31)C1CC2c2cc3c(cc21)C1CC3c2ccccc21	CellTiter-Glo		2 days		CC50	171 µM
CCCCn1cc(C(=O)O)c(=O)c2cc(F)c(Nc3ccccc3Cl)c([N+](=O)[O-])c21	cell growth or viability, SRB				IC50	310 µM
CCCCOP(=O)(O)Oc1c2c(c(OP(=O)(O)OCCCC)c3c1C1CC3c3cc4c(cc31)C1CC4c3ccccc31)C1CC2c2cc3c(cc21)C1CC3c2ccccc21	CellTiter-Glo		2 days		CC50	152 µM
CCCCn1cc(C(=O)O)c(=O)c2cc(F)c3c(nnn3-c3ccccc3Cl)c21	cell growth, SRB		72 h		IC50	90.2 ± 2.84 µg/mL
C(#Cc1cncc(OC[C@@H]2CCN2)c1)c1ccccc1	Caco-2 permeability		100 µM, 2 h, pH 7.4, together with: MK-571 100 µM		Papp A to B	23 ± 0.27 ×10⁻⁶ cm/s
CCCCn1cc(C(=O)O)c(=O)c2cc(F)c3c(nnn3-c3cccc(Cl)c3)c21	cell growth, SRB		72 h		IC50	92.5 ± 7.07 µg/mL
CC(C)CCOP(=O)(O)Oc1c2c(c(OP(=O)(O)OCCC(C)C)c3c1C1CC3c3cc4c(cc31)C1CC4c3ccccc31)C1CC2c2cc3c(cc21)C1CC3c2ccccc21	CellTiter-Glo		2 days		CC50	97 µM

A few entries again:
Compound	assay	system	conditions	how to read	quantity	value
CC(=O)N(CCCc1cn(-c2ccc(CN3CCOCC3)cc2)nn1)CCNc1ccnc2cc(Cl)ccc12					CC50	65.2 ± 10.7 µM
C#CCC(C)OP(=O)(O)Oc1c2c(c(OP(=O)(O)OC(C)CC#C)c3c1C1CC3c3cc4c(cc31)C1CC4c3ccccc31)C1CC2c2cc3c(cc21)C1CC3c2ccccc21 (stereo not shown)	CellTiter-Glo		2 days		CC50	> 300 µM
